Measured values pooled from the literature.
A part holds a random share of what one study measured.

Series 1 — method: protein binding microarray; form: double-stranded DNA, one strand shown; sample: in vitro; tested at: not given; relative to: not given; reading: higher = stronger binding; quantity: E-score
Target: Histone acetyltransferase KAT6A, both winged helices, GST fusion (KAT6A, Homo sapiens, UniProt Q92794, residues 1-181)
Setting: 8-mer, flanks averaged, mean of 2 arrays, mostly near background
Residues (chain): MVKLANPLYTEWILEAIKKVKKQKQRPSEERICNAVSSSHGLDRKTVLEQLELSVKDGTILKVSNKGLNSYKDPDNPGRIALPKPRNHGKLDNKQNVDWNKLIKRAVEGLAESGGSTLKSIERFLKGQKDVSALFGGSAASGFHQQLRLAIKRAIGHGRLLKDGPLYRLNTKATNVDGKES
Strand = GCATACAA; value = 0.00362
Strand = ACCTTCCG; value = 0.134
Strand = CCGTTATC; value = 0.152
Strand = CCAGGTGC; value = -0.205
Strand = CACCAGTA; value = -0.168
Strand = CGATTAAA; value = 0.0391
Strand = CCCGTAGG; value = 0.222
Strand = CGATGCTC; value = 0.045
Strand = GAAAGCCC; value = -0.06
Strand = AGCTGTCG; value = 0.0633
Strand = CCTAGGCG; value = 0.0596
Strand = GGTTTGAA; value = 0.000435
Strand = CTTATGCC; value = -0.0452
Strand = AACTCCTA; value = -0.234
Strand = AAAGCGAC; value = 0.0368
Strand = CGTTAACC; value = 0.103
Strand = CTTAATGC; value = -0.0372
Strand = GGTACTAA; value = -0.0122
Strand = ATGCGACA; value = 0.208
Strand = AGCGAGAT; value = 0.117
Strand = GCTGCGTA; value = 0.0867
Strand = ATCAGTTA; value = 0.0542
Strand = AGGGTCAT; value = -0.129
Strand = GCCTCGGA; value = 0.136
Strand = GGTCGGAA; value = 0.0913

Series 2 — method: RNA Bind-n-Seq; form: RNA; sample: in vitro; tested at: 1 µM; setting: whole 134-nt RNA, ends assumed; together with: 150 mM KCl; relative to: input library; reading: higher = stronger binding; quantity: log2 enrichment
Target: Ras GTPase-activating protein-binding protein 1, C-terminal RGG region (G3BP1, Homo sapiens, UniProt Q13283)
Sequence of UniProt Q13283 (whole entry, looked up): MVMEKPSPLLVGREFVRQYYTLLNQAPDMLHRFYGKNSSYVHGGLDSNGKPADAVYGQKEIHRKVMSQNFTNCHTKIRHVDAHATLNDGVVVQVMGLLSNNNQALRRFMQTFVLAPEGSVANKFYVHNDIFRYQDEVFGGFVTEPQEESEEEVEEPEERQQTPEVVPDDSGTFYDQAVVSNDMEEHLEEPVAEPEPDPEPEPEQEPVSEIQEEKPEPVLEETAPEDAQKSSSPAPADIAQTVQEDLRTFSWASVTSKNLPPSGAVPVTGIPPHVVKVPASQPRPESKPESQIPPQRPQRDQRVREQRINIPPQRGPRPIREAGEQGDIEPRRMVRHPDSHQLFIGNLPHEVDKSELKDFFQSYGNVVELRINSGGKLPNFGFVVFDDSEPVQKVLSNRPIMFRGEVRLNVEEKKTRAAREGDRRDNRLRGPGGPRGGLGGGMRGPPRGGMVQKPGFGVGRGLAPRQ
Strand = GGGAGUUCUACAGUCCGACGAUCAGAAAGCCCAGGAGGAACCACCUGCCAAGCUGCUGGAUGACCUUUUCCGAAAGACCAAGGCAGCUCCCUGCAUCUAUUGGCUCCCACUGAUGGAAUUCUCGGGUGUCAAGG; value = -0.645
Strand = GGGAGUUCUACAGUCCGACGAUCUCAAGUCCUGUGCUACACAUCGUAUGUACCGAAUCGGGGCGGGGCGGGGCGGGGAAAGUAUUAUGUUACGCCGUUCGGAUCUGCACUUCCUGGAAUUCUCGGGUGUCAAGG; value = 2.68
Strand = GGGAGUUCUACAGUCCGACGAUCUGGGAGGGGGAUUUUGUUUAUUUUUUUAGCUCAUUUCCAGGGGUGGGAAUUUUUUUUUAAUAUGUGUCAUGAAUAAAGUUGUUUUUGAAAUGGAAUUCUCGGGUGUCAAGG; value = 3.58
Strand = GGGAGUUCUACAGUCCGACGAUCAGUCCUGUGCUACACAUCGUAUGUACCGAAUCGGGGUUUUUGGGGAGGGGAAAGGGGAAAGUAUUAUGUUACGCCGUUCGGAUCUGCACUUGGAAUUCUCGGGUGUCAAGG; value = 2.58
Strand = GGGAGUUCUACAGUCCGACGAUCCCUGUGCUACACAUCGUAUGUACCGAAUCGGGGUUUUUUGGGUUUUUUGGGUUUUUUGGGGAAAGUAUUAUGUUACGCCGUUCGGAUCUGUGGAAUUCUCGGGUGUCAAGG; value = -1.13
Strand = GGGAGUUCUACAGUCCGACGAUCUAACUUUAGAGGAGGAUCUGAUGGAUAUGGCAGUGGACGUGGAUUUGGGGAUGGCUAUAAUGGGUAUGGAGGAGGACCUGGAGGUGGGAAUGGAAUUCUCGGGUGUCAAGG; value = -0.437
Strand = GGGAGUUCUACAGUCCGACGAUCCAAGUCCUGUGCUACACAUCGUAUGUACCGAAUCGGGUUGGGGUUGGGGUUGGGGAAAGUAUUAUGUUACGCCGUUCGGAUCUGCACUUCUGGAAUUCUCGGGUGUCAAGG; value = 3.04
Strand = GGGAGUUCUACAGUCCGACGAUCAGUCCUGUGCUACACAUCGUAUGUACCGAAUCGGGAAAAAAAGGGAAAGGGUUUGGGAAAGUAUUAUGUUACGCCGUUCGGAUCUGCACUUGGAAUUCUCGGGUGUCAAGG; value = 0.6
Strand = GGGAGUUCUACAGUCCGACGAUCUAACUUUAGCGGAGGAUCUGAUGGAUAUGGCAGUGGACGUGGAUUUGGGGAUGGCUAUAAUGGGUAUGGAGGAGGACCUGGAGGUGGCAAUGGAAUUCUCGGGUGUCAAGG; value = -1.47
Strand = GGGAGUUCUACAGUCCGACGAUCUUUCAGGGCGCCCUGCGUCCGGCAGAGGAGGCGAGCAUCCCGCUCAGGUGAUGAGGAACCCCUCGCGCACCCAGCGCAGAAGGCUGCUGCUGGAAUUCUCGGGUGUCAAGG; value = -1.95

Series 3 — method: RNA Bind-n-Seq; form: RNA; sample: in vitro; tested at: not given; relative to: input RNA pool; reading: higher = stronger binding; quantity: bound/input enrichment
Target: RING finger protein unkempt homolog, zinc fingers 1-6, GST-SBP tag (UNK, Homo sapiens, UniProt Q9C0B0, residues 30-357)
Setting: RNA with constant flanks, human-mouse chimeric sites, ends assumed
Target sequence (chain): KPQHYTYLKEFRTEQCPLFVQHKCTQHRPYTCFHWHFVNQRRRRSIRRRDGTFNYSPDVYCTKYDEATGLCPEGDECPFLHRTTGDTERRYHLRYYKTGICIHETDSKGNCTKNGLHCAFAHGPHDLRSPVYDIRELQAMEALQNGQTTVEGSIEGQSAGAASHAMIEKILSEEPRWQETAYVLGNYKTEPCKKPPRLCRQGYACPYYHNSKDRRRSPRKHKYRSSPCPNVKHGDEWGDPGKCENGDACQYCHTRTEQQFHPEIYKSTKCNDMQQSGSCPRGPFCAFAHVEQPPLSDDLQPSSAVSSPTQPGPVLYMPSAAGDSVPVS
Strand = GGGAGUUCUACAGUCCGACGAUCAAUUUCCUGUCAUACUUUUUAGACAUUCACAUCAGACUUACAGAGCACCUGGCCACAUUCUAGGUUUGUGUUAUUUCUAAGCCUUUUAUAUGAUCAAAUGAGAACACUGGCAGCCAGAUGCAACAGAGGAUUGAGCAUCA; value = 0.436 ratio
Strand = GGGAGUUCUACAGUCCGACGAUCAAAGAACUACUGAGGCAAGGCAGCAAAUUUAGGAGAGAUGUAUCAACAAUAUUGAUAGAGUUAGGAUUCCAAAUUAAAAAGAAAACUAAAAGAUUGUACAUCAACAAAGCCAAUGUGUGGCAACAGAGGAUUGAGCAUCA; value = 4.35 ratio
Strand = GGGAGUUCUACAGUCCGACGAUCUUUGUAUUCAUGUUAAGCACGCGUGCUGGUGGUCUGGGCAUCAAUCUUGCAACUGCUGAUGUAGUCAUUUUAUAUGACUCAGAUUGGAAUCCGCAAGUUGAUCUUCAGGCUAUGGACCGUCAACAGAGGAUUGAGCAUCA; value = 0.146 ratio
Strand = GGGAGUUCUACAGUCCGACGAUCGGGACUGAUUCAUCCCAAGGACAGGCCACCCCAUUUGGUGUUUGGAAUGACGACAGUAUGGAAGGGCCUAGUCAAAAUGUUGAAGCUGAGUCAAUUCAGGAUGCCAUGAGUAUGGAAGAGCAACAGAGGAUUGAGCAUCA; value = 0.264 ratio
Strand = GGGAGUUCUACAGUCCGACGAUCUAAAUUAGGGCUGCCGUUUUCUGUUUCGCCCUGAGCUGCGGAAAGCCAGAAGAUUUUAUCUAGCUUAUACAAGGCUGCUGGAGCUUGCUCUUUUUUUCCACGAGGGUGUUUUUGGCUGCACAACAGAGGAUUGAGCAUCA; value = 0.747 ratio
Strand = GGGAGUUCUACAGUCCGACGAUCGUAAUGGACGUUAAUACUGCUCUACAAGAGGUGCUGAAGACCGCCCUCAUCCACGAUGGCCUAGCACGUGGCAUACGCGAAGCUGCCAAAGCCUUAGACAAGCGCCAAGCCCAUCUUUGUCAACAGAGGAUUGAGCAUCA; value = 0.124 ratio
Strand = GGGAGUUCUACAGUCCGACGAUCGUGCCCUUCUCGCUGCUGCGGAGCCCGAGCUGGGAACCAUUCCGGGACUGGUACCCUCCGCAUAGCCGCCUCUUCGAUCAAGCUUUCGGGGUGCCCCGGCUGCCGGAUGAGUGGUCGCAGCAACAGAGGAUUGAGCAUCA; value = 0.0402 ratio
Strand = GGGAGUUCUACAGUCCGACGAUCAUAGAUGAAAUUGAUGUAGAUCAGGAAGGAAUUGCUGAAAUGAUCCUGGAUGAAAAUGCUAUUGCUCAAGUUCCACGCCCUGGCACAUCUUUGAAGCUCCCUGGCACUAACCAAACAGGACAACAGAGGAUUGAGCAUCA; value = 0.446 ratio
Strand = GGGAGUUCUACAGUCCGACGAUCCUGUGACCACAAGAUCCUACCUGAGUGGCAGCUGAAGUUGACUCCCUCUCCUUGCCUGAACCCCCCCCCACUGCCCCCCCAUCCCCCAGUGUCGGCUAUUCUCUGGUCUCUGCACGGUUCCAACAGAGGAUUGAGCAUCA; value = 1.32 ratio
Strand = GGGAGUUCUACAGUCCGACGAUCCGGAAGUGAUCCCCUGCUCAUUUUUCUCUUUUCUUUCUUUCCUUUAGGAAAAGCCUAAAGAUUAGGUUGUAAGAAAAACAGAAGCCAUGUUUCGAAGACCUGUGUUACAGGUAUUUCGUCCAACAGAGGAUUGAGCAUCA; value = 0.0694 ratio
Strand = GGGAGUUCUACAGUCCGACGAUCGGACAUCUGUCAAAUUGUUAUGUUCCUGUGAAACAAGUGAGCACUUUGAUACACUUCAUCUGCUUGUACAUUUAACUGAUAGAGAAAUGUAAAUAUGUUAAUCCAAGCAAUGUGUCACUUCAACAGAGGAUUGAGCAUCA; value = 0.35 ratio

Series 4 — method: RNA Bind-n-Seq; form: RNA; sample: in vitro; tested at: 365 nM; relative to: no-protein control; reading: higher = stronger binding; quantity: RBNS enrichment (R)
Target: RNA binding protein fox-1 homolog 2, RRM domain, GST-SBP tag (RBFOX2, Homo sapiens, UniProt O43251-10, residues 100-194)
Setting: natural RNA segment, single round, ends assumed
Residues (chain): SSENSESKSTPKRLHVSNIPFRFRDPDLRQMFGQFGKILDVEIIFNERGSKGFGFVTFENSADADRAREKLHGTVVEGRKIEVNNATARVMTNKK
Strand = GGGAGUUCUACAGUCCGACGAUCCUGGGGCAUGGGCUGAGCAAGUAUUUGUGUGGUCAAGGAAGUGCUAUGCCAACAUCUCCCAUUGGAAACAGGGUUUCUCCUCCUUGCUUCAUCAGAGCCAACCUUUGAUAUGGAAUUCUCGGGUGCCAA; value = 0.486
Strand = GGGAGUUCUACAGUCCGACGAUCCUGAUCCUACUACUGGAGCUUAAAAAUAACAAUUAAUGAAAAGUGUUAGAAACAAGGCUACAGUUUUAAAAUGGCUUGGUUCUGUCCUUGCAAUUGCUUUGUCGUGGCAAUGGAAUUCUCGGGUGCCAA; value = 0.313
Strand = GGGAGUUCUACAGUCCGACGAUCAAAUGUGUGCUUUAUAGUGUUUACUAAAGUGACAAGAAAAUAUACCAUUUGACACACUAUAGAUUCCAAACAUAACGUUGCACCAAAUAGAAAUGUAUAUUUUAUUAUGCUGGAAUUCUCGGGUGCCAA; value = 0.356
Strand = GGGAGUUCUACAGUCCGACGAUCUCUACCUGUUCCUAAUUUGGUGUGGGGUGCGGGGUCCCUGGCCCCUUUUCCACACUCCUCCUCCGACAGCAGCUCCCUGGGCAGUGGCCUGGUCUCACCGUGUGCAGCCUUGGAAUUCUCGGGUGCCAA; value = 0.316
Strand = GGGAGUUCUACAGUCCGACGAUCUAUAUCACAUUUUACUGAACCAAAAAGUUGGGUUUCCAAUAAAAUACUUGUUUUUUAAUAACCGACUUGUUUUUAACUGUGAUCUGAACUAUAAUGUACAGUUAUUACAGUGGAAUUCUCGGGUGCCAA; value = 0.576
Strand = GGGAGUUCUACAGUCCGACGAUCCUCACACAAGAAGACAGAGCCGGAAACAUGCAGGGUCAGACCAGUGUUCCUACAGUGAGCCCCAGAACUGCACAUUUGACCCAAAGGCACUCAGGUGGUGAAAAGAGACAUGGAAUUCUCGGGUGCCAA; value = 0.652
Strand = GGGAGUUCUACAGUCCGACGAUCAGUUUAGCAAGCAACUGAGAUUUAAGUCUCUCUGGCCCUAAGAGGUUUUUCCUCUUUGCUCCCUCCAAUCUUGAGAUUGGGUUUUGCUUUAGAGUGCAAGUAUCAUAAUUUGGAAUUCUCGGGUGCCAA; value = 12.3
Strand = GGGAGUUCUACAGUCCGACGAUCGUUUCUGGGGAAGCAAAGGAGCUUAGAGCAGCUGGUGUGCUCACCCCUCCCCAGACGCCUCCAUUAACCACAGACUAUGUAGCGCUGGCCCUAGCCUCUGGCAGAGCCUGUGGAAUUCUCGGGUGCCAA; value = 0.334
Strand = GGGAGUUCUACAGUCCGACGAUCGGGGCUGGGGGGAUCCCAGCAGGGGGAGGGCAAUCCCUUCACCCCAGUUGCCAAACAGACCCCCCACCCCCUGGAUUUUCCUUCUCCCUCCAUCCCUUGACGGUUCUGGCUGGAAUUCUCGGGUGCCAA; value = 0.21

Repeated from above (series 1):
Strand = ATGCGACA; value = 0.208
Strand = GGTCGGAA; value = 0.0913
Strand = AGCGAGAT; value = 0.117
